# Assay results pooled from the literature.
# Each line is one published result; not all experiments were run side by side. Numbers after ± are the reported error.
# Cell line: SH-SY5Y
SMILES,assay,conditions,how to read,measurement,value
Cc1c(C)c2c(c(C)c1O)CCC(C)(C(=O)O)O2 (stereo not shown),"intracellular ROS, DCFH-DA","20 µM, 24 h pretreatment, together with: TBHP 100 µM",baseline: TBHP alone,inhibition,~43%
O=C(O[C@@H]1COC(=O)c2cc(O)c(O)c(O)c2-c2c(cc(O)c(O)c2O)C(=O)O[C@H]1[C@@H]1OC(=O)c2cc(O)c(O)c(O)c2-c2c(O)c(O)c(O)c3c2C(=O)O[C@H]1[C@@H]3O)c1cc(O)c(O)c(O)c1,"neuroprotection, MTT","106.7 µM, 24 h, together with: H2O2 100 µM",,viability,99.1 ± 1.43%
COc1c(C)c(OCc2ccccc2)c(C)c(O)c1C(=O)/C=C/c1ccccc1,SRB,,baseline: normal over SH-SY5Y IC50,selectivity index,1.37
CN1CCc2cccc3c2[C@H]1Cc1ccc(O)c(O)c1-3,"cytoprotection, FDA/PI staining",together with: 0.8 µM p-tau,,EC50,3.2 µM
C=Cc1c2[n-]c(c1C)/C=c1\[n-]/c(c(C)c1C=C)=C\c1[n-]c(c(CCC(=O)O)c1C)/C=c1\[n-]c(c(C)c1CCC(=O)O)=C2.[Sn+4],"RNA-seq, refers to: EVA1A mRNA","5 µM, 5 h",baseline: untreated cells,fold change,2.4
CCCCCCCCCC(=O)Oc1c(C)c(O)c(C(=O)/C=C/c2ccccc2)c(OC)c1C,SRB,,baseline: normal over SH-SY5Y IC50,selectivity index,1.69
Cn1c(Nc2nc3ccc(C(F)(F)F)cc3s2)nc2cc(C(=O)NCCOCCO)ccc21,"RNA-seq, refers to: RGS3 mRNA","5 µM, 5 h",baseline: untreated cells,fold change,2.39
CN(C)CCCC1(c2ccc(F)cc2)OCc2cc(C#N)ccc21 (stereo not shown),"neurite outgrowth inhibition, phase-contrast imaging",freely dissolved concentration,,EC10,6.55 µM
C=CC1=C(C)c2cc3[n-]c(cc4nc(cc5[n-]c(cc1n2)c(C)c5C=C)C(C)=C4CCC(=O)O)c(CCC(=O)O)c3C.[Zn+2],"RNA-seq, refers to: CREB5 mRNA","5 µM, 5 h",baseline: untreated cells,fold change,2.01
COc1c(C)c(OC(=O)c2ccccc2)c(C)c(O)c1C(=O)/C=C/c1ccccc1,SRB,,baseline: normal over SH-SY5Y IC50,selectivity index,> 2.47

# Some of these lines once more:
SMILES,assay,conditions,how to read,measurement,value
O=C(O[C@@H]1COC(=O)c2cc(O)c(O)c(O)c2-c2c(cc(O)c(O)c2O)C(=O)O[C@H]1[C@@H]1OC(=O)c2cc(O)c(O)c(O)c2-c2c(O)c(O)c(O)c3c2C(=O)O[C@H]1[C@@H]3O)c1cc(O)c(O)c(O)c1,"neuroprotection, MTT","106.7 µM, 24 h, together with: H2O2 100 µM",,viability,99.1 ± 1.43%
